Values quoted from earlier work as cited in several papers.
Numbers after ± are the reported error.
cya: cya (Bordetella pertussis, UniProt P0DKX7)
HLA class I histocompatibility antigen, A alpha chain allele A*25:01: HLA class I histocompatibility antigen, A alpha chain, allele A*25:01 (Homo sapiens, UniProt P04439)
HLA class I histocompatibility antigen, A alpha chain allele A*26:03: HLA class I histocompatibility antigen, A alpha chain, allele A*26:03 (Homo sapiens, UniProt P04439)

Chains of the proteins cited; added tags and fusions are not shown. Residues count along the entry.
UniProt P0DKX7, 1-373 limits assumed: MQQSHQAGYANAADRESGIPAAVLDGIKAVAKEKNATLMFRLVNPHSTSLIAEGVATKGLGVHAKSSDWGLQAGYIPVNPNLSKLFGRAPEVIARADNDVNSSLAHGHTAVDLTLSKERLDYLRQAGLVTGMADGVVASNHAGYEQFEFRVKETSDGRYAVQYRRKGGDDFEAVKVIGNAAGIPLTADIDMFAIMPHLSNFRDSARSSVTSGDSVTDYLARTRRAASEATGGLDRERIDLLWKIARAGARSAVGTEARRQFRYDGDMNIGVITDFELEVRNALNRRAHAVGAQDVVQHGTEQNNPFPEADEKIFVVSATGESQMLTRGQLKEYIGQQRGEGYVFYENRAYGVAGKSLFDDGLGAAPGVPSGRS
UniProt P41240, 82-171 limits assumed: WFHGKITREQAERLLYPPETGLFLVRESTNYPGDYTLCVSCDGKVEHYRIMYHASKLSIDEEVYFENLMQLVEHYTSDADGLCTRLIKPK
UniProt Q99816, whole entry, looked up: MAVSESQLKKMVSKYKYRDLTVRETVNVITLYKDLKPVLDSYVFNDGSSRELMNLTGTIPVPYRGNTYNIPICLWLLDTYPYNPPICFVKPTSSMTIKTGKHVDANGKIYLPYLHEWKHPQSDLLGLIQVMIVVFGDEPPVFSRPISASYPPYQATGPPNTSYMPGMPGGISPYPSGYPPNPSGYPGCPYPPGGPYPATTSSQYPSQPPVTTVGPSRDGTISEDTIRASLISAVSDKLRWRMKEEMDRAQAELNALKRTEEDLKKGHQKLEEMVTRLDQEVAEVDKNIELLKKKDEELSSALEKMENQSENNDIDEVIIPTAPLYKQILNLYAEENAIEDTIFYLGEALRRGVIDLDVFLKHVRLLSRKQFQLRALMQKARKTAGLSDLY
UniProt O00748, 27-559 limits assumed: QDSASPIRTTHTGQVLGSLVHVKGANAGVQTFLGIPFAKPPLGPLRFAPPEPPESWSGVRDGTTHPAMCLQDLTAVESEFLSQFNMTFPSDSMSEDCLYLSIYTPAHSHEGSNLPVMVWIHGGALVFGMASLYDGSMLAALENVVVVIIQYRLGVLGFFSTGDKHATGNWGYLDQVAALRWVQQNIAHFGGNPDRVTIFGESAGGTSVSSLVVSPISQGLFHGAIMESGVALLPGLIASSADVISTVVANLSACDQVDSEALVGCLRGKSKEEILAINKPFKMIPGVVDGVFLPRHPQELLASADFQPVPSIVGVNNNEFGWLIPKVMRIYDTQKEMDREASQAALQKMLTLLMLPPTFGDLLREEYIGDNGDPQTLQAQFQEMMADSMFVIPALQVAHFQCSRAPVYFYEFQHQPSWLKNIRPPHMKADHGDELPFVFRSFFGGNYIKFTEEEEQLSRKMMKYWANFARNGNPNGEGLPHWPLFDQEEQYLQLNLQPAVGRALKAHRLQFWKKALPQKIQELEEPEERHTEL
UniProt Q05941, 23-502 limits assumed: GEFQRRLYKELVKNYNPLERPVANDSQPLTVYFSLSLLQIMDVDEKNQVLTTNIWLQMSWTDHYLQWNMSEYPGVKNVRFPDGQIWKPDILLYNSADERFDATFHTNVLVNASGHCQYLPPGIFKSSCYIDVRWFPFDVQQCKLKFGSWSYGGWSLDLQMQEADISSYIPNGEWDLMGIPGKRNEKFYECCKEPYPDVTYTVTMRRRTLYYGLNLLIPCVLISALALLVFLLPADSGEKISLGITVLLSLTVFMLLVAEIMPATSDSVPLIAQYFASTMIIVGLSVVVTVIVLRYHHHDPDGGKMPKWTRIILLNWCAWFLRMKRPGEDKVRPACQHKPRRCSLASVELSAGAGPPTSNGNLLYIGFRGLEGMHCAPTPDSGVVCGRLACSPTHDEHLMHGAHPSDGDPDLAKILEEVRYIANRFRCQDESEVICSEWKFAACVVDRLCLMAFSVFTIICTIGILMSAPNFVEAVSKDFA

`CC[C@H](NC(=O)[C@H](CCCNC(=N)N)NC(=O)CCNC(=O)CCNC(=O)COCCOCCNC(=O)CCCC[C@@H]1SC[C@@H]2NC(=O)N[C@@H]21)C(=O)N[C@@H](Cc1ccc(OP(=O)(O)O)cc1)C(=O)N[C@@H](CCCNC(=N)N)C(=O)N[C@@H](CO)C(=O)N[C@H](C(=O)N[C@@H](CC(C)C)C(=O)N[C@@H](CC(N)=O)C(N)=O)[C@@H](C)CC` has a Kd of 4.1 ± 0.2 µM (Tyrosine-protein kinase CSK, SH2 domain (CSK, Homo sapiens, UniProt P41240); SPR; added: SH2 domain).
`CC(C)[C@H](NC(=O)[C@H](CCCNC(=N)N)NC(=O)CN)C(=O)N[C@H](C(=O)N[C@@H](CCC(=O)O)C(=O)N1CCC[C@H]1C(=O)N[C@@H](CO)C(=O)N[C@@H](C)C(=O)N1CCC[C@H]1C(=O)N1CCC[C@H]1C(=O)N[C@@H](Cc1c[nH]c2ccccc12)C(=O)N[C@@H](CCC(=O)O)C(=O)NCC(=O)N1CCC[C@H]1C(=O)O)C(C)C` gave a Kd of 2.3 µM (Tumor susceptibility gene 101 protein, UEV domain (Homo sapiens, UniProt Q99816); 25 °C).
`CNc1ccccc1C(=O)O[C@H]1[C@@H](O)[C@H](n2cnc3c(=O)[nH]cnc32)O[C@@H]1COP(=O)(O)OP(=O)(O)OP(=O)(O)O` gave a Ki of 0.6 ± 0.1 µM (cya; inhibitor).
`Cc1cn([C@@H]2CC[C@H](OC(C(=O)O)P(=O)(O)O)C2)c(=O)[nH]c1=O` (relative stereo) has an IC50 of 0.4 µM (Gag-Pol polyprotein, reverse transcriptase (gag-pol, Human immunodeficiency virus 1, UniProt P03366); reverse transcriptase activity, inhibitor; added: poly(rA)·oligo(dT) template/primer).
With `CC[C@H](C)[C@H](NC(=O)[C@H](CO)NC(=O)[C@@H]1CCCN1C(=O)[C@@H](NC(=O)[C@H](CC(N)=O)NC(=O)[C@H](CC(C)C)NC(=O)[C@H](CCSC)NC(=O)[C@H](CCCCN)NC(=O)[C@H](CC(C)C)NC(=O)[C@@H]1CCCN1C(=O)[C@@H](N)CC(C)C)[C@@H](C)CC)C(=O)N[C@@H](CC(N)=O)C(=O)N[C@H](C(=O)N[C@@H](Cc1c[nH]cn1)C(=O)O)C(C)C` the IC50 was greater than 20 µM (HLA class I histocompatibility antigen, A alpha chain allele A*25:01).
`CNc1ccccc1C(=O)O[C@H]1[C@@H](O)[C@H](n2ccc(N)nc2=O)O[C@@H]1COP(=O)(O)OP(=O)(O)OP(=O)(O)O` has a Ki of 1.1 ± 0.1 µM (cya; inhibitor).
The IC50 of `CC[C@H](C)[C@H](NC(=O)[C@H](CO)NC(=O)[C@H](Cc1ccc(O)cc1)NC(=O)[C@H](CCC(N)=O)NC(=O)[C@H](CC(C)C)NC(=O)[C@@H](N)Cc1ccc(O)cc1)C(=O)N[C@@H](CO)C(=O)N[C@H](C(=O)N[C@@H](C)C(=O)O)[C@@H](C)O` is reported as greater than 20 µM (HLA class I histocompatibility antigen, A alpha chain allele A*25:01).
`Cc1cc(C)c(S(=O)(=O)Nc2ccccc2)cc1S(=O)(=O)Nc1ccccc1` has a Ki of greater than 100 µM (Cocaine esterase (CES2, Homo sapiens, UniProt O00748); enzyme activity, inhibitor; added: CPT-11 substrate).
For `CC(C)C[C@H](NC(=O)[C@H](CC(=O)O)NC(=O)[C@H](CCCCN)NC(=O)[C@H](CC(C)C)NC(=O)[C@H](CCCNC(=N)N)NC(=O)[C@H](CCCNC(=N)N)NC(=O)[C@H](CCCCN)NC(=O)[C@H](Cc1ccccc1)NC(=O)[C@@H](N)CCC(=O)O)C(=O)O`, the IC50 was greater than 20 µM (HLA class I histocompatibility antigen, A alpha chain allele A*26:03).
`CC[C@H](C)[C@H](NC(=O)[C@@H](NC(=O)[C@@H](NC(=O)[C@@H](NC(=O)[C@@H]1CCCN1C(=O)[C@H](Cc1c[nH]cn1)NC(=O)[C@@H]1CCCN1C(=O)CN)C(C)(C)C)[C@@H](C)CC)C(C)(C)C)C(=O)N[C@H](C(=O)NCC(=O)N1CCC[C@H]1C(=O)N[C@@H](Cc1c[nH]cn1)C(=O)N[C@@H](CCC(=O)O)C(=O)N[C@@H](CCC(=O)O)C(=O)O)[C@@H](C)O` has a Kd of 0.05 µM (Protein phosphatase 3 catalytic subunit alpha, with calcineurin B (PPP3CA, Homo sapiens, UniProt Q08209); binding).
With `CC(C)C[C@H](NC(=O)[C@H](CO)NC(=O)[C@H](CCCCN)NC(=O)[C@H](CC(C)C)NC(=O)[C@H](CCCCN)NC(=O)[C@@H](N)CCC(=O)O)C(=O)N[C@@H](Cc1ccc(O)cc1)C(=O)N[C@@H](CC(N)=O)C(=O)N[C@H](C(=O)N[C@H](C(=O)O)C(C)C)[C@@H](C)O` the IC50 was greater than 20 µM (HLA class I histocompatibility antigen, A alpha chain allele A*26:03).
For `COCCC1CC1c1cncc(OC[C@@H]2CCN2)c1` (stereo partly drawn), the Ki was greater than 10 µM (Chrna7 (Rattus norvegicus, UniProt Q05941); binding).
